Experimental data of several laboratories.
Each numbered part is a random draw from the data of one study; scales do not carry over between parts.

Set 1
Target: Centromere-binding protein 1, full length, His-tagged (CBF1, Saccharomyces cerevisiae, UniProt P17106, residues 1-351)
UniProt P17106, sequence (whole entry, looked up): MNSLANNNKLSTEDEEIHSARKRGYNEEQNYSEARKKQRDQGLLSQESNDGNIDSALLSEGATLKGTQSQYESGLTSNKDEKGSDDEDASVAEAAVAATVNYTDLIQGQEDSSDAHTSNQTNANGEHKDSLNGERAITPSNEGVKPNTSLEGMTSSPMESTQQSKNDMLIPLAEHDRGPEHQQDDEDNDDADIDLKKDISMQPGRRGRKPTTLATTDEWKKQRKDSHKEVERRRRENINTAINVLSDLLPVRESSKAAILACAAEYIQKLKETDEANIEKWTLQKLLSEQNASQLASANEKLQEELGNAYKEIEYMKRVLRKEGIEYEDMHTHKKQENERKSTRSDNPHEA
Technique: competition protein-binding microarray
Molecule type: double-stranded DNA, one strand shown
Sample: in vitro
Tested at: 2 µM
Setting: whole 60-bp probe, lowest competitor level
Together with: Pho4 competitor, 0.05 µM
Direction: higher = stronger binding
Quantity: fluorescence intensity
CGTCCTAGTGATTGCGCAGTGGGTGCCATGAGGAAGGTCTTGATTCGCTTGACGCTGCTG: 78.2 a.u.
AACAACCGCCTCGACCACGCACCAAAGAGCTGTTAAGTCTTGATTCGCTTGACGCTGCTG: 56.5 a.u.
TCGCCGATCTCCCCTCACATGTACACTTTTAATCAGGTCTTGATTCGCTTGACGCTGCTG: 252 a.u.
CTAACGAAGGTTTGGTCGGTGGGTGACAAGCCAAGTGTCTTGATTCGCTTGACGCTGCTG: 62.2 a.u.
TCTCACCCATTCCGTCACGCTTTGGTTGCCGGTATTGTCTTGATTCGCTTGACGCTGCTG: 117 a.u.
AGATGAAGCTCTCACCACGCACCATTAAATGTAAACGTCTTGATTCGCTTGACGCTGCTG: 70.6 a.u.
AGCGAACTCGCTCGAAGCGTGCCGACCAGCTCCCGGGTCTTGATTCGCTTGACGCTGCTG: 57.5 a.u.
CCTCCTCTACCGTTCGACATGACAAAAAGGCGTTGGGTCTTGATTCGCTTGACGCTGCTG: 68.8 a.u.
GGCTATTGAATCTCCAACGTGACGGTCGGTGAGAATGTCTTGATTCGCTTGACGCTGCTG: 206 a.u.
CTTTCCCGATCTTGGCTTGTGGGTGTAGCACATTTGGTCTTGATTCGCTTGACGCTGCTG: 79.1 a.u.
CGTCCTAGTGATTGTTTTGTGGGTGCCATGAGGAAGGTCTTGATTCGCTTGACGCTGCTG: 92.7 a.u.
CACTGAGTACTTCCTCACCTGATCCAATCGATTGACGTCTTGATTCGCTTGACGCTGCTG: 348 a.u.
GAGCAGTTACGCAACTCCGTGATGGCGCGCCAAGGGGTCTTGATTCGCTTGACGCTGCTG: 62.7 a.u.
AAAATCTGTATGACTCACGTGCAAATCATCCATGAGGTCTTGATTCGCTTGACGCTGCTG: 1710 a.u.
CGGGGTTAAGTTTTTCACGTGACGTGCGATCAGCAGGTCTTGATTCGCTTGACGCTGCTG: 5570 a.u.
CATACCCAACCTTGTCATGTGGGTGAAGATATTTGTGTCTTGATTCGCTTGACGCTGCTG: 224 a.u.
ATCAACAATTTGTTCCACGTGCGATAAAATGTCGTTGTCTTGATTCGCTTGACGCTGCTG: 2140 a.u.
GTCTAAATTATTCCGCACGTTTTTCGGTGTGGTACAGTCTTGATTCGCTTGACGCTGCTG: 225 a.u.
CTTCTTGTAATGTTGCGCGTGATGGGAATCGATGTCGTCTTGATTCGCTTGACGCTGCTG: 307 a.u.
TGAACACCCATCCATCACGTGTAATTGGACATCCGGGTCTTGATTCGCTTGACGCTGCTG: 2090 a.u.
GCAGTGCATAAGAGTGACCTGCGGCCAAGAACCCTAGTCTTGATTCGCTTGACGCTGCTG: 55.6 a.u.
CTTCTGTAAATTTGGGAAGTGGGTGGACGCGCCCCGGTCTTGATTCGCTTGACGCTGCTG: 82.4 a.u.
CTTCTGTAAATTTGTCACGTAACTTGACGCGCCCCGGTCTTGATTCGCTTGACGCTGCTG: 156 a.u.
CTTTCCCGATCTTGTCACTAGACTTTAGCACATTTGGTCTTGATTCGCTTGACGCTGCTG: 83.5 a.u.
GCTTGTGAACAGCGTCACAGATCCAGTTGTAACGAGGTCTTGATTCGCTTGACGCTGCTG: 73 a.u.

Set 2
Target: Sal-like protein 4, full length isoform A (SALL4, Homo sapiens, UniProt Q9UJQ4, residues 1-1053)
UniProt Q9UJQ4, sequence (whole entry, looked up): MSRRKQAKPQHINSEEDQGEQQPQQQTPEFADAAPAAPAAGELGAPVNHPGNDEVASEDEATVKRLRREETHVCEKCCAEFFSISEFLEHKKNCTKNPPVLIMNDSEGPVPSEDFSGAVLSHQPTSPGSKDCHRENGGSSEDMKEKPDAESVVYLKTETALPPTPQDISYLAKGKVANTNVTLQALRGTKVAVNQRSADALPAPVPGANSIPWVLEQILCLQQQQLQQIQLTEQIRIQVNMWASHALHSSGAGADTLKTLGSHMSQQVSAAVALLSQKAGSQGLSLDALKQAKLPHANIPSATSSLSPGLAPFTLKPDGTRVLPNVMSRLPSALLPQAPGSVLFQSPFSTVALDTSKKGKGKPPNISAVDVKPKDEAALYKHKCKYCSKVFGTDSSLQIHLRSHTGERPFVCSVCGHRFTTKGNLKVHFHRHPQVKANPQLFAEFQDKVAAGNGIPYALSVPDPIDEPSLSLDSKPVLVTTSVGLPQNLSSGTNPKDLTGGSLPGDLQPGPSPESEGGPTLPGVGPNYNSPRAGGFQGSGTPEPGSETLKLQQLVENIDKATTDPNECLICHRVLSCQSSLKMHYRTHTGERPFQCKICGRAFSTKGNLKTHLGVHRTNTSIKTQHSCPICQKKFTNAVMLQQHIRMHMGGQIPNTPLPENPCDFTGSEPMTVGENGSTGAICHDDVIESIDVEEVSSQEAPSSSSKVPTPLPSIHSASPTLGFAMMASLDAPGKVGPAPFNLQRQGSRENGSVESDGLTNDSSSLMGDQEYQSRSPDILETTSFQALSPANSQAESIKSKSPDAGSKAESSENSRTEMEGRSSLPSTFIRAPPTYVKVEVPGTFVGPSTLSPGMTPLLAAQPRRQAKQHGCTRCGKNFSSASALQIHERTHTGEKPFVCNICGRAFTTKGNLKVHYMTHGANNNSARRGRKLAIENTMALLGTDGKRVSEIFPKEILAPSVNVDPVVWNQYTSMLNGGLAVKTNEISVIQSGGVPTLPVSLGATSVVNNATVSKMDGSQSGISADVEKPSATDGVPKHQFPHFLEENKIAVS
Technique: universal PBM
Molecule type: double-stranded DNA, one strand shown
Sample: in vitro
Tested at: 600 nM
Setting: 8-mer, flanks averaged, mean of replicates
Direction: higher = stronger binding
Quantity: E-score
ACGTAGGA: 0.108
GAACAGAC: -0.033
CTCTACCA: -0.0283
AGGCTCGC: -0.297
ATAGTCCC: -0.0624
ATTTCCAC: 0.181
AAGTGCAG: -0.0596
TCCATACA: 0.171
CAAAACAA: 0.227
ACAGGGCC: -0.256
AAACGAGA: 0.106
AAATCGCA: 0.197
CTACACAG: 0.0711
TCTCATAA: 0.323
ACGCTGTG: -0.0905
GAAGCGCC: -0.206
CTGCGGCC: -0.391
ATGCCCCG: -0.342
AAGTTGAC: -0.056
GACGACGA: -0.0278
ATGAGAAA: 0.265
CTTCCGTC: -0.222

Set 3
Target: RNA binding protein fox-1 homolog 2, RRM domain, GST-SBP tag (RBFOX2, Homo sapiens, UniProt O43251-10, residues 100-194)
Technique: RNA Bind-n-Seq
Molecule type: RNA
Sample: in vitro
Tested at: 365 nM
Setting: natural RNA segment, single round, ends assumed
Baseline: no-protein control
Direction: higher = stronger binding
Quantity: RBNS enrichment (R)
Target sequence (chain): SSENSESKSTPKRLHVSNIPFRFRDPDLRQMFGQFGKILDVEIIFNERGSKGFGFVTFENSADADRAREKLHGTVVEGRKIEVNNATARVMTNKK
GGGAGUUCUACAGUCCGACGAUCGCUGUUUGUAAUGCAGUCUUCCAUUCUGUGAGUCUUUGAUUCUCCAUGCUGGCUAGAAGUUGGCCACAACUUGAGCAAAACUGCCUCUCACACAGUGAGAUGCACUCAAAUGGAAUUCUCGGGUGCCAA: 0.296
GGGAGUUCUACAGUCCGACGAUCGGCUCACUGCAAACUCCGCCUCCCAGGUUCAAGCGAUUCUCCCACCUCAGCCUCCUGAGUUGGGUCCUACAGGCGCACACGACCACGCCCAGCUAAUUUUUUGUAUUUUUUGGAAUUCUCGGGUGCCAA: 0.437
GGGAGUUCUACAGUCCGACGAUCGUAAAGAUCUAAAUUCCUAUGGAUAUUCAGUGGUCUUAGCACCAUGUGUUAAAAGGACUGCUUUUCCCCACUGUGUCCCUGUCAAAAAUCAACUGAACAUAUAUGUAAGAUGGAAUUCUCGGGUGCCAA: 0.369
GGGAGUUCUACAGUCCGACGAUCUCCUCUGUGUUUCAAUACCUAUAUACCUAUUGAACAAAGCAGUAGGUAGACAUUUCCUAAAGUUGAAGCAGUAGCUUCAUAGAGUCUUGGUUACUUUAUUUUUUUUAAUGUGGAAUUCUCGGGUGCCAA: 0.815
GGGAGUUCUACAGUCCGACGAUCUAAUAGCCCUUCCAUCUGGCAGUGGGGGUAGAAUACACUCUUGACAUUCUUGUCUCCUGCUUUAGAAUGCUAGUGUGUAUCUAUCAUGUAUGCAAUACUUUCCCCCUUUUUGGAAUUCUCGGGUGCCAA: 0.487
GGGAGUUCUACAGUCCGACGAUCUAGCCCUAAAAUGACAAGCCUUCUUAAAGCCUUAUUUUUCAAAAGCGCCCCCCCCAUUCUUGUUCAGAUUAAGAGUUGCCAAAAUACCUUCUGAACUACACUGCAUUGUUUGGAAUUCUCGGGUGCCAA: 0.943
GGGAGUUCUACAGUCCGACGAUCUCAGUCUGCAGUAUUGAGUUGUUUAAAGUAUAUGUGCAGUCUUGCUUACAAGGAGGGGUUACCAUGUAUCACACCUAAUCUUCCCAAUGUUUGGGAUAUUAAAACACAAAUGGAAUUCUCGGGUGCCAA: 0.497
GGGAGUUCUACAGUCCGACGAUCAUUCCAAGUCACUCCUCGAUGAAGACUCUUGUUGAGACUUACUAAACACUUUAGGCGCAGUCGGGAGGAUCUGCAGCAAAAUAAAGGCCUGUUCUGCUCUUAUUUAACAUUGGAAUUCUCGGGUGCCAA: 0.357
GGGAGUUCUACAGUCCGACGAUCCAGGGCUAGGGUAUCUGUUUAUCUUUCAAAAUGAUAAAUCUGACUCAAGAUUUUUUAUGUAUGUAUAAAUAAGUAUUUUGGUGUGCUACACAGCUUUUUCAAAUUACCAGUGGAAUUCUCGGGUGCCAA: 0.542

Set 4
Target: Histone acetyltransferase KAT6A, winged helix 1, GST fusion (KAT6A, Homo sapiens, UniProt Q92794, residues 1-85)
Technique: protein binding microarray
Molecule type: double-stranded DNA, one strand shown
Sample: in vitro
Tested at: not given
Setting: 8-mer, flanks averaged, mean of 2 arrays, mostly near background
Baseline: not given
Direction: higher = stronger binding
Quantity: E-score
Target sequence (chain): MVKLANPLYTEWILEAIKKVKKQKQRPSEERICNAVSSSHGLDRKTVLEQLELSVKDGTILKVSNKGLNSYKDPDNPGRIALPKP
AACGATTC: -0.0833
GAGTTCAC: -0.15
CGCTCAGC: 0.295
CCTCCTCG: -0.108
CATCTCTC: -0.0588
AGCAGAGC: -0.205
CTCTTAGC: 0.0548
CAGGCGCA: 0.159
CTCGTAAA: 0.0078
AACACCAG: -0.198
TACTAACA: -0.0166
AGAGCCTA: -0.171
CGTCCAAC: 0.00771
CTGCATGA: -0.219
GTAGAATA: -0.144
CTCGTCAA: -0.0663
TTCGTAAA: -0.162
GTCTCAAA: -0.0514
CTAGACTA: -0.00539
GGAGAAAC: 0.0453
CGCTAGCA: -0.0132
GAAAACTC: -0.0395
AGGTGCGA: -0.0793
CGACTTGA: -0.118
ATGTTAGC: -0.0443

A few entries again (set 1):
ATCAACAATTTGTTCCACGTGCGATAAAATGTCGTTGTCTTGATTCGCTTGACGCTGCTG: 2140 a.u.
GTCTAAATTATTCCGCACGTTTTTCGGTGTGGTACAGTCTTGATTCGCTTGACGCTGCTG: 225 a.u.
CTTCTTGTAATGTTGCGCGTGATGGGAATCGATGTCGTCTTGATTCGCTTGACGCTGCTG: 307 a.u.
TGAACACCCATCCATCACGTGTAATTGGACATCCGGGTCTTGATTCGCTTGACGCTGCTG: 2090 a.u.
GCAGTGCATAAGAGTGACCTGCGGCCAAGAACCCTAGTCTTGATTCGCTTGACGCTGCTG: 55.6 a.u.
CTTCTGTAAATTTGGGAAGTGGGTGGACGCGCCCCGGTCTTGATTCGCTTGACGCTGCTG: 82.4 a.u.
